Measured values from different studies.
Parts stem from different laboratories: compare values within a part only.
UniProt P62344, sequence (whole entry, looked up): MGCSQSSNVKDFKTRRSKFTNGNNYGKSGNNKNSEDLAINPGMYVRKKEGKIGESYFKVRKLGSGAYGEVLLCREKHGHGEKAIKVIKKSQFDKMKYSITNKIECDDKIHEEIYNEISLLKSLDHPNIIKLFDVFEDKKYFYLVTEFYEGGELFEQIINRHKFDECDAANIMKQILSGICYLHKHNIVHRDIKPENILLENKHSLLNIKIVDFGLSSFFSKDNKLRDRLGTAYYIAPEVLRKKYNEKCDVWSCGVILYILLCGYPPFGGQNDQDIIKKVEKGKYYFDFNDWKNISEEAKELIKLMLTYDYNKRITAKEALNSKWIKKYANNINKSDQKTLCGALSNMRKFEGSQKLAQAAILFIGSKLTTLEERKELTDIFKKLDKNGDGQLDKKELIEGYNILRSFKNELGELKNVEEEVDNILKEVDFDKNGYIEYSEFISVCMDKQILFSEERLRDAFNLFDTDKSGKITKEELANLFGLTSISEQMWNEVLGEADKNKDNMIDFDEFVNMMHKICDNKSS
UniProt P28223, sequence (whole entry, looked up): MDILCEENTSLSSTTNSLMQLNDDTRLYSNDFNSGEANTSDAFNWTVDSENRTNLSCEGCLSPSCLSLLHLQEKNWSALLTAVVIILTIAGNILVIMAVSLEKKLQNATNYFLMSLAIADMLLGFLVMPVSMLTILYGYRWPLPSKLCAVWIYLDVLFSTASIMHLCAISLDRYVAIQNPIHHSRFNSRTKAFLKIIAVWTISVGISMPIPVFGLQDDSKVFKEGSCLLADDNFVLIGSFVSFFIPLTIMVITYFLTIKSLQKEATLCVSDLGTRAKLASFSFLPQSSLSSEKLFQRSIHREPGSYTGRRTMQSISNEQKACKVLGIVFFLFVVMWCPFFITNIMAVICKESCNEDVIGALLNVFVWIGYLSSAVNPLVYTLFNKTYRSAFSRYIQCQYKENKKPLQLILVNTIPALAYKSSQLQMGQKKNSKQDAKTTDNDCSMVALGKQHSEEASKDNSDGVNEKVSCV
UniProt P9WI81, sequence (whole entry, looked up): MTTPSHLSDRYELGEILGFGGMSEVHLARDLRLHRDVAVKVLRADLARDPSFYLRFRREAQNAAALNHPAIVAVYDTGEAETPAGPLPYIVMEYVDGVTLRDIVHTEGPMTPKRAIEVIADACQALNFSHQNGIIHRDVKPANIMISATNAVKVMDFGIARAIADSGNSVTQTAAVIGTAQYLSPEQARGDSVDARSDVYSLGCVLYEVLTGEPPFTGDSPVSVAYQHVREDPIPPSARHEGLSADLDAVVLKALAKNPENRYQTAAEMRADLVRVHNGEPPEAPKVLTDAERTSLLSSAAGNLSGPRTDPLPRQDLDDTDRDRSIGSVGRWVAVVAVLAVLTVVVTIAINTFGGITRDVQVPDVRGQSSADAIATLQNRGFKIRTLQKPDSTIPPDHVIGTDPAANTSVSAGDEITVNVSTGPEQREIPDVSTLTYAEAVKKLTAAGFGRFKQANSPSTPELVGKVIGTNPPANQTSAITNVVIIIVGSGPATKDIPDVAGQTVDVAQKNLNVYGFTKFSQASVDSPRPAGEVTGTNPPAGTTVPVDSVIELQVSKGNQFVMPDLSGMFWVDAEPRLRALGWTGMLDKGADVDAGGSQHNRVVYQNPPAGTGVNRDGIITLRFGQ

Study 1 — cell line: HEK-293T; observed: pseudovirus infection; method: FDA-approved drug library counter-screen; organism: VSV pseudotyped with VSV-G; tested at: 10 µM; time: 16 h; relative to: vehicle-treated
Compound	GFP-positive cells
CCCN(CCC)S(=O)(=O)c1ccc(C(=O)O)cc1	125%
Oc1ccc(OCc2ccccc2)cc1	69.9%
N=C(N)NC(=O)Cc1c(Cl)cccc1Cl	141%
CNC1(C)C2CCC(C2)C1(C)C (stereo not drawn)	101%
C#C[C@]1(O)CC[C@H]2[C@@H]3CCC4=Cc5oncc5C[C@]4(C)[C@H]3CC[C@@]21C	146%

Study 2 — host: human; medium: microsomes or S9; tested at: 2 µM; time: 0.5 h
SMILES	remaining compound
CC(NNc1ccccc1)=C1C(=O)NC(=O)NC1=O	99%
Cc1ccc(C[C@H](NCc2ccccc2)c2cccs2)cc1	0.279%
O=C(CCc1ccsc1)Nc1ccc2c(c1)CNCC2	95.7%

Mixed results
SMILES	target	observed	method	tested at	quantity	result
O=C(NCc1ncc(C(F)(F)F)cc1Cl)c1ccc2c(c1)C1(CCS(=O)(=O)CC1)[C@H](C1CC1)N2S(=O)(=O)c1ccc(F)cc1	PRKACB (Homo sapiens, UniProt P22694)	cell-free assay	competition with immobilised ligand	1 µM	remaining binding	96%
CN1CCN(C(=O)c2ccc(NC(=O)Nc3ccc(N(C)c4ccnc(Nc5ccc(CS(C)(=O)=O)cc5)n4)cc3)cc2)CC1	pknB (Mycobacterium tuberculosis, UniProt P9WI81)	binding		1 µM	remaining binding	87%
Cc1cc(-n2nc(Cc3cc(F)cc(C(F)(F)F)c3)nc2C)ccc1C(N)=O	HTR2A (Homo sapiens, UniProt P28223)	cell-free assay		10 µM	inhibition	10.5%
CS(=O)(=O)NCC[C@H](NC(=O)c1cncc2c1cnn2-c1ccc(F)cc1)c1ccnc(S(C)(=O)=O)c1	CDPK1 (Plasmodium falciparum, UniProt P62344)	cell-free assay	competition with immobilised ligand	1 µM	remaining binding	99%

Excerpt of the above (study 1):
Compound	GFP-positive cells
CNC1(C)C2CCC(C2)C1(C)C (stereo not drawn)	101%
